Measurements collected from several papers.
Protocols differ between the studies behind these lines. ± marks the error that the study gave.
Cell line: HeLa

C=C(C)[C@@H]1CC[C@]2(COC(=O)CCC(=O)O)CC[C@]3(C)[C@H](CC[C@@H]4[C@@]5(C)CC[C@H](OC(=O)CCC(=O)O)C(C)(C)[C@@H]5CC[C@]43C)[C@@H]12
IC50 (cell growth or viability, SRB; 72 h): 8.25 µg/mL

CN1CCCC1CCO/N=C1/C=C2CCC3C(CC[C@]4(C)/C(=C/c5ccccn5)CCC34)[C@@]2(C)CC1 (stereo partly drawn)
IC50 (cell growth or viability, MTT; 72 h): > 100 µM

Nc1ncnc2c1ncn2CC(=O)N[C@@H](Cc1ccccc1)C(=O)N[C@@H](Cc1ccccc1)C(=O)N[C@@H](Cc1ccc(O)cc1)C(=O)O
IC50: > 500 µM

CO[C@@H]1[C@@H](O[C@@H]2O[C@H](C)[C@@H](O[C@H]3C[C@@](C)(O)[C@@H](OC(=O)c4ccccc4)[C@H](C)O3)[C@H](N(C)C)[C@H]2O)[C@@H](CC=O)C[C@@H](C)[C@@H](O[C@H]2CC[C@H](N(C)C)[C@@H](C)O2)/C=C/C=C/C[C@@H](C)OC(=O)C[C@H]1O
IC50 (cell growth or viability, CCK-8; 72 h): 7.18 µM

CCCCC[P+](c1ccc(C)cc1)(c1ccc(C)cc1)c1ccc(C)cc1
IC50 (cell growth or viability, resazurin; 72 h): 0.45 µM

Cc1ccccc1CNC(=O)Cc1ccc(-c2ccc(OCCN3CCOCC3)cc2)cn1
IC50 (cell growth or viability, CCK-8; 48 h): 2.2 µM

Clc1ccc(C=[N+]2N=C(Nc3ccccc3)[S][Pt-]2([Cl])[Cl])s1
IC50 (cell growth or viability): 37 µM

O=C(Cc1ccc(-c2ccc(OCCN3CCOCC3)cc2)cn1)NCc1cccc(F)c1
IC50 (cell growth or viability, CCK-8; 48 h): 0.53 µM

CO[C@@H]1[C@@H](O[C@@H]2O[C@H](C)[C@@H](O[C@H]3C[C@@](C)(O)[C@@H](OC(=O)/C=C/c4ccc(C(F)(F)F)cc4)[C@H](C)O3)[C@H](N(C)C)[C@H]2O)[C@@H](CC=O)C[C@@H](C)[C@@H](O[C@H]2CC[C@H](N(C)C)[C@@H](C)O2)/C=C/C=C/C[C@@H](C)OC(=O)C[C@H]1O
IC50 (cell growth or viability, CCK-8; 72 h): 1.3 µM

CNc1ccc(CNC(=O)Cc2ccc(-c3ccc(OCCN4CCOCC4)cc3)cn2)cc1
IC50 (cell growth or viability, CCK-8; 48 h): 0.15 µM

N#Cc1c(-c2cccs2)cc(-c2cccc3ccccc23)nc1Nc1ccc(Nc2nc(-c3cccc4ccccc34)cc(-c3cccs3)c2C#N)cc1
IC50 (cell growth or viability, MTT; 72 h): 0.244 µM

Nc1ccn([C@@H]2O[C@H](CSSc3ccccn3)[C@@H](O)[C@H](F)[C@H]2O)c(=O)n1
IC50 (cell growth or viability): 369 µM

Cc1cc(N2CCN(C(=O)CN3CCN(c4ccccc4)CC3)CC2)n2ncnc2n1
IC50 (cell growth or viability, MTT): 9.88 µM

COc1ccc(-c2nnc(-c3ccccn3)[nH]2)cc1OC
IC50 (cell growth or viability, MTT; 24 h): > 100 µM

CC(C)c1ccc(C[C@H](C)C(=O)NC(=O)N[C@@H]2O[C@H](CO)[C@@H](O)[C@H](O)[C@H]2O)cc1
IC50 (cell growth or viability; 96 h): > 250 µM

C=C1C(=O)O[C@@H]2/C=C(\C)CC/C=C(/C(=O)OC)[C@H](OC(C)=O)[C@@H](OC(=O)/C(C)=C\C)[C@@H]12
IC50 (cell growth or viability; 48 h): 5.51 µM

COc1ccc(COC[C@](O)(CNCc2ccc(F)cc2)[C@@H]2CC[C@@H](C)C[C@H]2OCc2ccc(OC)cc2)cc1
IC50 (cell growth or viability, MTT; 72 h): 3.6 µM

COc1cccc(CNc2nc(NCc3ccccc3)c3ccccc3n2)c1
IC50 (ODD-Luc degradation; p97-independent substrate): > 20 µM

COC(=O)[C@@H](NC(=O)[C@@H](NC(=O)OC(C)(C)C)C(C)C)C(C)C
IC50 (cell growth or viability, SRB): 7 µM

CO[C@@H]1[C@@H](O[C@@H]2O[C@H](C)[C@@H](O[C@H]3C[C@@](C)(O)[C@@H](OC(=O)c4ccc(C(C)(C)C)cc4)[C@H](C)O3)[C@H](N(C)C)[C@H]2O)[C@@H](CC=O)C[C@@H](C)[C@@H](O[C@H]2CC[C@H](N(C)C)[C@@H](C)O2)/C=C/C=C/C[C@@H](C)OC(=O)C[C@H]1O
IC50 (cell growth or viability, CCK-8; 72 h): 1.3 µM

O=[N+]([O-])c1ccc(C=[N+]2N=C(Nc3ccccc3)[S][Pt-]2([Cl])[Cl])s1
IC50 (cell growth or viability): 1.7 µM

O=C(/C=C/c1ccc(-c2ccccc2)cc1)N[C@@H]1O[C@H](CO)[C@@H](O)[C@H](O)[C@H]1O
IC50 (cell growth or viability; 96 h): 84 µM

S=c1n(-c2ccccc2)c2c3ccccc3nc3[n+]2[n]1[Ir-3]12([S]3)([c]3ccccc3-c3sc4ccccc4[n+]31)[c]1ccccc1-c1sc3ccccc3[n+]12
IC50 (cell viability, MTT; irradiation 450 nm, 15.5 mW/cm^2, 15 min): 0.006 ± 0.001 µM

CC[P+](c1cc(C)cc(C)c1)(c1cc(C)cc(C)c1)c1cc(C)cc(C)c1
IC50 (cell growth or viability, resazurin; 72 h): 0.8 µM

O=C(Cc1ccc(-c2ccc(OCCN3CCOCC3)cc2)cn1)NCc1ccc(F)cc1
IC50 (cell growth or viability, CCK-8; 48 h): 0.04 µM

CCCCCCCCCCCCCCCCCCOc1c(O)cc(C(=O)O[C@@H]2Cc3c(O)cc(O)cc3O[C@@H]2c2cc(O)c(O)c(O)c2)cc1O
IC50 (cell growth or viability, CCK-8; 24 h): 60.6 µM

Cc1cc(O)cc2c1O[C@](C)(CCC[C@H](C)CCC[C@H](C)CCCC(C)C)CC2
IC50 (cell growth or viability, MTT): 4.01 µM

CCCCCCCCCCOc1c(O)cc(C(=O)O[C@@H]2Cc3c(O)cc(O)cc3O[C@@H]2c2cc(O)c(O)c(O)c2)cc1O
IC50 (cell growth or viability, CCK-8; 24 h): 112 µM

COc1cc2c(=O)c(-c3ccc4c(c3)OCO4)coc2c2c1OC(C)(C)C=C2
IC50 (cell growth or viability, MTT; 72 h): 6.09 µM

COc1ccccc1CNC[C@](O)(COCc1ccccc1)[C@@H]1CC[C@@H](C)C[C@H]1OCc1ccccc1
IC50 (cell growth or viability, MTT; 72 h): 2.1 µM

CC[C@H](C)[C@H](NC(=O)[C@H]([C@@H](C)CC)N(C)C(C)=O)C(=O)N[C@H](C(=O)N[C@@H](CC(C)C)C(=O)[C@@]1(C)CO1)[C@@H](C)O
IC50 (cell growth or viability, resazurin; 48 h): 0.004 µM

CN[C@H](CC(C)C)C(=O)N[C@H]1C(=O)N[C@@H](CC(N)=O)C(=O)N[C@H]2C(=O)N[C@H]3C(=O)N[C@H](C(=O)N[C@H](C(=O)O)c4cc(O)cc(O)c4-c4cc3ccc4O)[C@H](O)c3ccc(c(Cl)c3)Oc3cc2cc(c3O[C@@H]2O[C@H](CO)[C@@H](O)[C@H](O)[C@H]2O[C@H]2C[C@](C)(N)[C@H](O)[C@H](C)O2)Oc2ccc(cc2Cl)[C@H]1O
IC50 (cell viability, MTT; 12 h): > 500 µM

O=C(Cc1ccc2ccccc2c1)N[C@H](Cc1ccccc1)C(=O)N[C@H](Cc1ccc(O)cc1)C(=O)N[C@H](Cc1ccccc1)C(=O)N[C@H](Cc1ccc(OP(=O)(O)O)cc1)C(=O)O
IC50 (cell growth or viability, MTT): 132 µg/mL

COC(=O)CNc1cc(C[S+]([O-])c2ccc3ccccc3c2)ccc1OC (stereo not drawn)
IC50 (cell growth or viability, MTS; 48 h): 0.974 µM

S=c1n(-c2ccccc2)c2c3ccccc3nc3[n+]2[n]1[Ir-3]12([S]3)([c]3cccc4ccc5ccc[n+]1c5c34)[c]1cccc3ccc4ccc[n+]2c4c13
IC50 (cell viability, MTT; dark): > 50 µM

C[C@@H]1CC[C@@H]([C@](O)(COCc2ccccc2)Cn2cnc3ccccc32)[C@H](OCc2ccccc2)C1
IC50 (cell growth or viability, MTT; 72 h): 4 µM

CC1=CC(C)=[O+][Pt-2]([NH3+])([NH3+])[O]1.CC1=CC(C)=[O+][Pt-2]([NH3+])([NH3+])[O]1.O=S(=O)([O-])[O-] (stereo not drawn)
IC50 (cell growth or viability, MTT): 32 µM

Cc1cc(C=O)cc(C)c1Oc1cc(Nc2ccc(C#N)cn2)nc2cnccc12
IC50 (48 h): > 126 µM

CC12CCC3c4ccc(OCCCOc5no[n+]([O-])c5S(=O)(=O)c5ccccc5)c(Br)c4CCC3C1CCC2O (stereo not drawn)
IC50 (cell growth or viability, MTT; 48 h): 3.58 µM

O=C(CCCc1ccc2c(c1)CCCC2)N[C@@H]1O[C@H](CO)[C@@H](O)[C@H](O)[C@H]1O
IC50 (cell growth or viability; 96 h): > 250 µM

COc1cccc(CNC[C@@](O)(COCc2ccccc2)[C@@H]2CC[C@@H](C)C[C@H]2OCc2ccccc2)c1
IC50 (cell growth or viability, MTT; 72 h): 4.6 µM

COc1ccccc1C(=O)c1c(-n2c(C(=O)c3ccccc3OC)cc(Cl)c2Cl)c(Cl)c(Cl)n1C
IC50 (cell growth or viability, resazurin; 24 h): > 64 µg/mL

F[P-](F)(F)(F)(F)F.O=C(CCC(=O)[c-]1cccc1)NCCN(CC(=O)Nc1ccc(C#CCN(Cc2ccccn2)Cc2ccccn2)cc1)C(=O)CCc1cn(Cc2ccccc2)nn1.[C-]#[O+].[C-]#[O+].[C-]#[O+].[C-]#[O+].[C-]#[O+].[C-]#[O+].[Mn+].[Re+]
IC50 (cell growth or viability, resazurin; 48 h): 8 µM

CC(C)(C(=O)O)C1(O)CCCCC1
IC50 (cell growth or viability): 129 µM

Cc1cc(C=O)cc(C)c1Oc1cc(Nc2ccc(C#N)cc2)nc2ccncc12
IC50 (48 h): 31.6 ± 1.9 µM

O=C(Cc1ncc(-c2ccc(OCCN3CCOCC3)cc2)cn1)NCc1ccccc1
IC50 (cell growth or viability, CCK-8; 48 h): 0.37 µM

COc1ccccc1/C=N/NC(=O)c1cc2cc(Nc3nccc(-c4cccnc4)n3)ccc2[nH]1
IC50 (cell growth or viability, MTT; 48 h): 9.75 µM

CC(C)(C)c1cc2c(O)c(c1)Cc1cc(C(C)(C)C)cc(c1OCC(=O)Nc1cncc3ccccc13)Cc1cc(C(C)(C)C)cc(c1O)Cc1cc(C(C)(C)C)cc(c1OCC(=O)Nc1cncc3ccccc13)COC2
IC50 (cell growth or viability, MTT; 72 h): 6 µM

COc1cc(CN2CCN(c3cccc(Cl)c3)CC2)c2cc3[n+](cc2c1O)CCc1cc2c(cc1-3)OCO2
IC50 (cell growth or viability, SRB; 48 h): 3.98 µg/mL

COC(=O)[C@]12CS[C@H](c3ccccc3)N1C(=O)/C(=C(\O)CCc1ccccc1)C2=O
IC50 (cell growth or viability, resazurin): 31.3 µg/mL

O=C(COc1ccc(-c2ccccc2)cc1)N[C@@H]1O[C@H](CO)[C@@H](O)[C@H](O)[C@H]1O
IC50 (cell growth or viability; 96 h): > 250 µM

For quick reference, copied from above:
CO[C@@H]1[C@@H](O[C@@H]2O[C@H](C)[C@@H](O[C@H]3C[C@@](C)(O)[C@@H](OC(=O)c4ccccc4)[C@H](C)O3)[C@H](N(C)C)[C@H]2O)[C@@H](CC=O)C[C@@H](C)[C@@H](O[C@H]2CC[C@H](N(C)C)[C@@H](C)O2)/C=C/C=C/C[C@@H](C)OC(=O)C[C@H]1O
IC50 (cell growth or viability, CCK-8; 72 h): 7.18 µM

Nc1ncnc2c1ncn2CC(=O)N[C@@H](Cc1ccccc1)C(=O)N[C@@H](Cc1ccccc1)C(=O)N[C@@H](Cc1ccc(O)cc1)C(=O)O
IC50: > 500 µM

COC(=O)[C@@H](NC(=O)[C@@H](NC(=O)OC(C)(C)C)C(C)C)C(C)C
IC50 (cell growth or viability, SRB): 7 µM
